Results gathered from unrelated publications.
Numbered parts are unrelated; each lists some results of a single study.

Study 1
Target: Hepatocyte nuclear factor 3-beta, forkhead domain (FOXA2, Homo sapiens, UniProt Q9Y261, residues 142-269)
Method: protein-binding microarray
Molecule type: double-stranded DNA, one strand shown
Medium: in vitro
Concentration: not given
Setting: k-mer, scored over probes, only values ≥0.25
Reading: higher = stronger binding
Construct (chain): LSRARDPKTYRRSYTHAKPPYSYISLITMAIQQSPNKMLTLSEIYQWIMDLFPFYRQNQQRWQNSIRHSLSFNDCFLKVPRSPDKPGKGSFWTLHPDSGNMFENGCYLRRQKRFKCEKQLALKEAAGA
Oligonucleotide	E-score
TGAGTACA	0.284
ATATAGAA	0.361
CAAGTATA	0.288
GCATACAA	0.274
AATGATGA	0.301
ATGACAAA	0.265
TCAACACA	0.343
CAGTCATA	0.251
AATAATTA	0.317
TTTACAAA	0.282
GTCAAACA	0.279
AATTATAG	0.256
ATGACTTA	0.261
ATACGATA	0.325
GAATAACA	0.323
ATATTAAC	0.293
CAATAACA	0.343
ATTTACAA	0.33
TAGTATAA	0.295
AATAGGTA	0.263
ATATATAG	0.352
ACCAATAT	0.272
ATACATGA	0.334

Study 2
Target: Histone acetyltransferase KAT6A, winged helix 2, GST fusion (KAT6A, Homo sapiens, UniProt Q92794, residues 85-181)
Method: protein binding microarray
Molecule type: double-stranded DNA, one strand shown
Medium: in vitro
Concentration: not given
Setting: 8-mer, flanks averaged, mean of 2 arrays, mostly near background
Baseline: not given
Reading: higher = stronger binding
Residues (chain): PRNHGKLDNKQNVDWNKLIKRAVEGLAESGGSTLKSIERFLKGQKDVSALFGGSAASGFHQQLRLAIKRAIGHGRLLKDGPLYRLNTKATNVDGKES
Oligonucleotide	E-score
CGGTTGCC	0.0977
ACTTATAC	-0.0477
GATTTGAC	-0.147
CACTTCTG	-0.142
GAGCATCA	-0.0907
ACCCCTGG	-0.023
CTATGTAA	-0.0954
ATACGCCG	-0.0556
GCACGACA	-0.0481
CTTAGTTC	0.0714
CCTGAGTC	0.00428
ACTGTAAG	-0.0137
GCGTGATA	0.0808
CGCTTACC	0.0391
ATGTAACG	0.00549
CACACTTC	-0.0247
CATTCGGA	0.144
CAGACCAG	0.0343
GGGAGGTA	-0.0717
GGAATCAC	-0.147
CTACACAA	-0.0345
GCATGGGC	0.00639
AACGAGAC	-0.169

Study 3
Target: Hepatocyte nuclear factor 3-alpha (Foxa1, Mus musculus, UniProt P35582, residues 1-468, full length assumed)
Method: EMSA with sequencing
Molecule type: double-stranded DNA, one strand shown
Medium: in vitro
Concentration: 10 and 20 nM
Setting: whole designed probe, mean of two concentrations, ends assumed
Baseline: negative control set to 0
Reading: higher = stronger binding
All sequences stand within: GTGAGCGGTGCCCATTGATGGGGAAC … TTTCACTGGGATCGTGGGGAC
Residues (chain): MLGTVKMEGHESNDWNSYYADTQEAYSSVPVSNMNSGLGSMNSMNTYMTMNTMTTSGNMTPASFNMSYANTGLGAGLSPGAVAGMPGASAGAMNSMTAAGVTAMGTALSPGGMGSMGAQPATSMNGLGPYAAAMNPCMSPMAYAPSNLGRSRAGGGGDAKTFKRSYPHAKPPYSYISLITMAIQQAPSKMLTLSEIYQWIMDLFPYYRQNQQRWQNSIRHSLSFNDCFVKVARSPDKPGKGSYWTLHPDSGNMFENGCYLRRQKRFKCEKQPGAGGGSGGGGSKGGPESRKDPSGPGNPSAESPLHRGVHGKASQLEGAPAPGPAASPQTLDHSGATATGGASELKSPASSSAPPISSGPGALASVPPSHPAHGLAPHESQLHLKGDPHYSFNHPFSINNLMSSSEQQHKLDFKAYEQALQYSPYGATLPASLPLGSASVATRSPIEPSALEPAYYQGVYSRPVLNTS
Oligonucleotide	normalised bound fraction
CTCATTCCTTGCTTCCGCCAATAATCTGACTAGTAAAGAAGTCACTGCATGCCACAAATTGTCAGTGCTGACTTCCTCAACAAGGAAGTTATTAAATTACTTATTTAATATATGAGTGACTCAGATGCAAATTCCATCTTGAGAATACCAACTCCTGATGCCAACTGATTGTCAGTCATGGCTACAACAGGAG	-0.021 ratio
GTAGGCCTCTGCTGGTCCTGTCAACTCGTCCTGGCGGCACAGAAGCTGCCAACGGTACGTCAGTGAGTTACCTTGGCCGTGTTCCAGTGAAACTGTTTACACAGGCAGGACGAAGTGACTGTGGTGATGGTTGCGTAACTCTGTGAACACACTGGAAACCATTGAATGTGTGTACTTGATCTGAATTGCGTGG	0.389 ratio
TGGCAGAGCCAAGTTTACCAGTGTGTTGGCAGGAGTTACTGTTCCTTCTTGTGTGATTTCTTTGAGGACATTGCACTGTTTATACAGAGAGTGTAAACATAGCTGTTGATTTAACTAAACACTGTTTTTTGTTCCCCGTCTCTCACAGCCATGGTAAATAGCCTAATATTTAAGCTCAGAGGCTTTGATGTGA	0.379 ratio
ATCTTCCCCTGCATTCCCCTCCCCAGTCCTCACCTTCCCGGGTTATTTGCAGATAGGAAAATAAATAAAGCCGGCATTCGTTAACCCTCTTCTGGCGCAAACTGCTGTTTGCTCTGGATGAATCATGGTCCTTTGGCGACGCCAGGCTCCGGGAGAGCAAAGCACCGTGTCAGGGCCATGATCCGGGGTGGCC	0.344 ratio
ATCTTCCCCCTCTTCCTTGCCCCACCAGCTCACCTTCCCGGGTTATTTGCAGATAGGAAAATAAATAAAGCCGGCATTCGTTAACCCTCTTCACGCGCATACTGCCAAAGTAAACAGATGAATCATGGTCCTTTGGCGACGCCAGGCTCCGGGAGAGCAAAGCACCGTGTCAGGGCCATGATCCGGGGTGGCC	0.49 ratio

Study 4
Target: Sal-like protein 4, full length isoform A (SALL4, Homo sapiens, UniProt Q9UJQ4, residues 1-1053)
Chain of UniProt Q9UJQ4 (whole entry, looked up): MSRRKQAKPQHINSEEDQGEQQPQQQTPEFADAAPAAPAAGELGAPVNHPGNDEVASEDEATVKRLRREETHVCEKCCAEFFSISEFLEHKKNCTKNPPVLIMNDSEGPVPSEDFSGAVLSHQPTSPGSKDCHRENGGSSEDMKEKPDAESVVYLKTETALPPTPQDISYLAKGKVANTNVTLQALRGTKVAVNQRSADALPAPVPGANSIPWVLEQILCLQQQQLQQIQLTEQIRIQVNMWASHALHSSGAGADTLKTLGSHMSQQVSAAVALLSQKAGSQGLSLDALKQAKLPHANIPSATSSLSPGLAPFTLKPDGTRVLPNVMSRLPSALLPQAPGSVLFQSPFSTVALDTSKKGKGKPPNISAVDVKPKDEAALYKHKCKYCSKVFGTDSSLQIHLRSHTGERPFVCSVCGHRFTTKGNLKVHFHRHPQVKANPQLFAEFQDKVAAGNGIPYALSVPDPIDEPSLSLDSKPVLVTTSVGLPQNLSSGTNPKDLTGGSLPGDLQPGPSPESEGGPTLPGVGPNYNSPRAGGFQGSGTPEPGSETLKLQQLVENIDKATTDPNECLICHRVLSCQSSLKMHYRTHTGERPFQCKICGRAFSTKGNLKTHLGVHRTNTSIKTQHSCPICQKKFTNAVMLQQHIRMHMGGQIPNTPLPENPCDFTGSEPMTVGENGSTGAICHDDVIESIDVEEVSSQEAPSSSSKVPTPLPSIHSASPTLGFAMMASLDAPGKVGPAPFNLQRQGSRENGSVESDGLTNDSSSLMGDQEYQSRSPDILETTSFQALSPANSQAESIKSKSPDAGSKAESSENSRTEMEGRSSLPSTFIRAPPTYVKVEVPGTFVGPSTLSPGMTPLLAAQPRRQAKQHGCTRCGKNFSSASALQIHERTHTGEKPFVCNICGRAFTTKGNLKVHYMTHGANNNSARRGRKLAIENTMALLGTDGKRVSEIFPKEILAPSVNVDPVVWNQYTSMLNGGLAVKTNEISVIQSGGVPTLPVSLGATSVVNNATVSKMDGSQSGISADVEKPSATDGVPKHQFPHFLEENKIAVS
Method: universal PBM
Molecule type: double-stranded DNA, one strand shown
Medium: in vitro
Concentration: 600 nM
Setting: 8-mer, flanks averaged, mean of replicates
Reading: higher = stronger binding
Oligonucleotide	E-score
GCTGGACA	-0.152
CTTCTCGC	-0.0387
ACAGAGGG	-0.221
AATGAATG	0.309
CGCTTACG	-0.169
ACTAAAGG	0.0493
ACCGATCC	-0.3
GTCCGGAA	-0.19
CCTCCACC	-0.238
GCAATGGC	-0.193
AAGAGCTG	-0.173
CCGCGGAA	-0.258
AGTCCCAG	-0.277
AAGCTCCC	-0.296
ATCATCAT	0.313
ACTGCAAA	0.167
AGTGTTAC	0.147
GCATGCTA	-0.156
GCAGCGGC	-0.371
AAACAACG	0.0637
ACTAAATC	0.156
TACAGGAA	0.0657
CGCTCCGC	-0.288
CACTCACC	-0.119
CTACCTAC	0.0187

Study 5
Target: RNA binding protein fox-1 homolog 2, RRM domain, GST-SBP tag (RBFOX2, Homo sapiens, UniProt O43251-10, residues 100-194)
Method: RNA Bind-n-Seq
Molecule type: RNA
Medium: in vitro
Concentration: 365 nM
Setting: natural RNA segment, single round, ends assumed
Baseline: no-protein control
Reading: higher = stronger binding
All sequences stand within: GGGAGUUCUACAGUCCGACGAUC … UGGAAUUCUCGGGUGCCAA
Target sequence (chain): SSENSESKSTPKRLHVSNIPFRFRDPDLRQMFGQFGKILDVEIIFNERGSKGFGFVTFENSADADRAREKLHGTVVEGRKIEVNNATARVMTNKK
Oligonucleotide	RBNS enrichment (R)
UUCUCCGCUCUGUGGUGCAAUAUCCCUAUUUGUAGGGACUACAAGAAAUAACUUUGAAGGGAAAAAAGUCAUUAGCUUAGAAUAUGAAGCAUAUCUACCCAUGGCGGAAA	0.838
UCUCGGGCCAGUGCUCUGCUCUGUCCAGGGUAGGUAAUACUGGGAGACUCCUGUCUUUUACCCUCCCCUCGUUCCAGACCUGCCUCAUGGUGGCAACAUGGUUCUUGAAC	0.255
AGAACCUGCCUCCCUCCCAGAAGUCACAGCACCUGCUUCUCAGCUCCUCAUGUGUGCAUGUGUGCCAGAGCGCCAGGCAGGGUGGUUGCCUCAUCACCUCAUGGCCAAUU	3.09
AAUGAGAUAAUCCACAGUUAUUCAUUGUGGAGUUGUUGAGACUAUGAAAGACUCAUUGUCUUUGUAUUCAGCUCUUAAAUAGUGUAACUAUAUCCCCACCUCUGCUUGCU	1.64
UUAGCCCUCUGCCUCUCCAAAGCAUCAGAACCACCUUCAGUCUGGAGAAGGGGAAGCCUCUUGGAGACAGAGGGUUUCACCUUAUAUGACCUCAAGAGAAACAGCCUAAG	0.859
AUUUAACUUCUAAUUCAGUAUGAUGCUGGUUUCAUACUGGCAAAUGGUUCCCCACUCUAAUUCCAUUACUGAAGAUUAAGCCCAGGCAGGGACUUGCUCAUUCUAGGCAA	0.358
GCAAGUUCUCAUAAACCAGCCGCUACCUUUGGACCCCUCACUCUAUAAUUCCCUGCCCUCUCCCAUCUGAUUGGCUUGUUAAGUGGAGCGUAUGUAAUAUAGAGACUCCU	0.68
UGGCGCCCCACCCCUCCUGAGAUGGAAUGGACUCGAUUUGAGCAAGCCAUGGCCCUCCAGCUCCCCAGCCCGGCUGCGGAGUUGCAGCAGGUCCUGCCCAUCGGGCACAU	0.224

Repeated from above (study 4):
Oligonucleotide	E-score
ACTGCAAA	0.167
AGTGTTAC	0.147
GCATGCTA	-0.156
GCAGCGGC	-0.371
AAACAACG	0.0637
ACTAAATC	0.156
TACAGGAA	0.0657
CGCTCCGC	-0.288
